Experimental data gathered from unrelated publications.
Parts stem from different laboratories: compare values within a part only. Substitutions count along the parent as printed.

Sample 1 — technique: DHFR PCA, deep sequencing; medium: yeast; together with: (+)-ABA 1.4 µM; relative to: wild-type fitted maximum; direction: higher = stronger binding; measurement: relative binding score
Target: ABI1, truncated, D143A, DHFR fusion (Arabidopsis thaliana)
Notes: methotrexate growth selection, single substitutions
Starting sequence: PYL1, truncated, DHFR fusion (Arabidopsis thaliana); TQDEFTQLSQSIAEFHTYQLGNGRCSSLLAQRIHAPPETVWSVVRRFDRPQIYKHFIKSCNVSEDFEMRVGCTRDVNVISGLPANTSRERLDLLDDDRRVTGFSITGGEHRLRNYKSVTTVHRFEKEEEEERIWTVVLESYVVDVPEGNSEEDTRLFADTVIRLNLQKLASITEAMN
V121P: 5.01%
V137F: 1.16%
T17W: -23%
D96I: 3.19%
R113T: 54%
C72W: 11.9%
V142I: 49.3%
I162R: 17.8%
S63T: 45.3%
R69M: 44.1%
V40S: 9.09%
C60L: 5.35%
S11M: 49.5%
V145P: -18.8%
E152P: -14.6%
T86G: 31%
I172K: -6.22%
N85K: 82.4%

Sample 2 — technique: RNA Bind-n-Seq; molecule type: RNA; medium: in vitro; concentration: 365 nM; relative to: no-protein control; direction: higher = stronger binding; measurement: RBNS enrichment (R)
Target: RNA binding protein fox-1 homolog 2, RRM domain, GST-SBP tag (RBFOX2, Homo sapiens, UniProt O43251-10, residues 100-194)
Notes: natural RNA segment, single round, ends assumed
Constant ends, left off below: GGGAGUUCUACAGUCCGACGAUC … UGGAAUUCUCGGGUGCCAA
Construct (chain): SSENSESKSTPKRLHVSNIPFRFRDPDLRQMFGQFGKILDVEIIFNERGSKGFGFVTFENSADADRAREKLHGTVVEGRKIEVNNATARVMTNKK
AAUUGUCUGACCCUAGAGGCAGAUGCUGCACUGCACUACUCCAAUGUCUUCCAUGGAGCCUCAGGUGCUCCCCCUCUCACCUGGCAGCCCCUUCAGCUGCUAGUGAUAUC: 0.317
AAAACUCAUUGAUUGGGUUUCUACUUCUUUCAAGGACUCAGGAAAUUUCACUUUGAACUGAGGCCAAGUGAGCUGUUAAGAUAACCCACACUUAAACUAAAGGCUAAGAA: 0.323
CCGCUGGGUGGCAGAAGCCAAAAGACCUUAUUAACGAGGCUAUAUUUUUCUUAACUUGAUCUGCAAUCCAGAAUUAGACCACAAUGCACCUUUGGUGGUAUCCAUAUAGG: 0.787
UGAAAAAAUGUUCCCUGGCUAGUGUACUCCAUUCUCUUUCCUAGUGGCUCGGGCCAGACUUCAUCCAUUUAGAGAGAAGCAGUACUUCCUGUUUGUGUGCCCAUCUUAAA: 0.456
UUAGCUUAAAUUGUAACCUUUUGUUGUGUAUAUAAAACUUCCUUGGAAGAAAAUAACCUUAUUGUUUUCUUAAAGCUAAACAGAAUAGGAUUGGUACUCAUUAAUUAUGU: 0.428
CAAAUGACAGCAGGAAACCACGGCAUAGUGCCACCAUCCAGGGUGCAGGGACAGAUGAUGUGCUGUCCUGUAUGAACCAUGCAUUCCAAUGGUACAACUGCCCAAAUCCA: 1.48
UCAUUUACUGUUUUAGGUCUAGCCUAUGUGGAUUUUUUCCUAACAUACCUAAGCAAACCCAGUGUCAGGAUGGUAAUUCUUAUUCUUUCGUUCAGUUAAGUUUUUCCCUU: 0.373
AAAUUCGCAUCUAACUGAAUGGUAGUGUCUUUAAAAUGUGCUGUUUUAUUUUAAAAAUAAUGCAUGUGCACUUUAGAAAUUUUUGAAAAUAAAGAUACAUGAAAGAAAGU: 3.79

Sample 3 — technique: protein binding microarray; molecule type: double-stranded DNA, one strand shown; medium: in vitro; concentration: not given; relative to: not given; direction: higher = stronger binding; measurement: E-score
Target: Histone acetyltransferase KAT6A, winged helix 1, GST fusion (KAT6A, Homo sapiens, UniProt Q92794, residues 1-85)
Notes: 8-mer, flanks averaged, mean of 2 arrays, mostly near background
Residues (chain): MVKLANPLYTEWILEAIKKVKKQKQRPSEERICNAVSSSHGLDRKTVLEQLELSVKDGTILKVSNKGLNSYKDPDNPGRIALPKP
CACGTTAA: -0.236
AACTCTGC: -0.192
GACCGGAC: 0.0778
CTGTAAAA: -0.181
TGGATAAA: -0.104
CGTGGAGA: -0.0636
CCAACTGG: -0.224
AACGTGGT: -0.137
ATAGCAAG: -0.0429
ATCGCTAA: -0.0238
TCCTTTCA: -0.128
ACCATAAG: -0.13
TAATCACA: -0.2
CTTAAAAG: -0.196
GAACTCTC: -0.0334
ATCGCGAG: 0.225
AGCTCTAT: -0.0431
GGGGCGTA: 0.156
GATTTGGA: -0.0809
TTGTTAAA: -0.117
ATAGTTAA: 0.0119
GACTATAC: -0.0202

Sample 4 — target: CCNB3, cyclin fold, Cln2 fusion (human); technique: yeast growth competition, sequencing; medium: yeast; notes: weak parent motif; relative to: not given; direction: higher = stronger binding; measurement: normalised enrichment score
Starting sequence: E2F1 docking peptide (human); PPVKRRLDLETDH; partner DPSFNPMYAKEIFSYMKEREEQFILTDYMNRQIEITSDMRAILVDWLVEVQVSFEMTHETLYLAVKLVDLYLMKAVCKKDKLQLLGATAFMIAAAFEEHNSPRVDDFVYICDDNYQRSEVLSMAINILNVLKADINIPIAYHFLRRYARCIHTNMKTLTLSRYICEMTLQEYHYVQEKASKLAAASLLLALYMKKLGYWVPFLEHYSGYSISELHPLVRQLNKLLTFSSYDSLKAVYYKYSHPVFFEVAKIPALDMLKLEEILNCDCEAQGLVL
PPVKRRLELETDH [D8E]: -0.042
GPVKRRLDLETDH [P1G]: 0.448
PPVKRRLDLESDH [T11S]: 0.806
PPVKRRLDLETDS [H13S]: 0.598
PPVKRDLDLETDH [R6D]: -0.2
CPVKRRLDLETDH [P1C]: 0.325
WPVKRRLDLETDH [P1W]: 0.844
TPVKRRLDLETDH [P1T]: 0.417
PPVKRRLDLETDR [H13R]: 0.371
PPVKRRLDLETDV [H13V]: 0.637
PPCKRRLDLETDH [V3C]: 0.464
PPVTRRLDLETDH [K4T]: -0.359
PPVKRRLDLHTDH [E10H]: 0.774
PPVKRRLDLEMDH [T11M]: -0.0384

Sample 5 — technique: RNA Bind-n-Seq; molecule type: RNA; medium: in vitro; concentration: not given; relative to: input RNA pool; direction: higher = stronger binding; measurement: bound/input enrichment
Target: RING finger protein unkempt homolog, zinc fingers 1-6, GST-SBP tag (UNK, Homo sapiens, UniProt Q9C0B0, residues 30-357)
Notes: RNA with constant flanks, human and mouse sites, ends assumed
Constant ends, left off below: GGGAGUUCUACAGUCCGACGAUC … CAACAGAGGAUUGAGCAUCA
Construct (chain): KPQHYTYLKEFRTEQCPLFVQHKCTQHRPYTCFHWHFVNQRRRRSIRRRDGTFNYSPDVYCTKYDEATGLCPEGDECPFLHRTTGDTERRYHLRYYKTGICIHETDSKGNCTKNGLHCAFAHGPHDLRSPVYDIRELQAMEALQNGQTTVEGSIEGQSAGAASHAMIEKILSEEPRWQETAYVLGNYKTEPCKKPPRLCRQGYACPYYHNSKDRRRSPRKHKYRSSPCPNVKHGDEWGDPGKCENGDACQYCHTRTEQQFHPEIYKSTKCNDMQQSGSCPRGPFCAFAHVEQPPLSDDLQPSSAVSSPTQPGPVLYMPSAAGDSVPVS
UUUUACAAGGGGGACAAAGACAAUAAGUAUGUUCCCUACUCGGAGAGCUUCAGCCAAGUUUUAGAGGAAACUUACAUGCUUGCUGUAACUUUGGAUGAAUGGAAAAAGAAACUGGAAUCU: 0.131 ratio
UUUAGUGACUAUGGUAAGCUUUUGUUGAUUUGUUUCAGACUUUUUUCUCCUGUAAAAAAAUAGUACUGAUUAACUUUUUUAAAAGAAAGAUUUUACUGUAAAUAUGGAUUUUUUUUUUUG: 4.34 ratio
AUCCUAAGGUUCAAUGUUCAAGAGAAUGGGUUUUUAUCUUCAUUGCCUUAUUUAGGCUCUUGGUUAUGUAUGAUCCUGUCUGGUCAAGCUGCUGACAAUUUAAGGGCAAAAUGGAAUUUU: 0.181 ratio
GAGAUGAGGGCAAGAGCGAUUAAAGCCCUAAUGAAAGCUGGUGAUAUAAAAAAGCCAGCCUAGGUAUUUAACUUGAUUUUGAAUUUUAGGUAUGUUUGAACAAAGCCACAUCAUUUAAUU: 1.45 ratio
GAACUGUUGAGCUCCUAUGAUGUAGAUGUUAAUCAGAUCAUAAAUACCAUAUCCGAAUGGAUAGUUUUGAUUAAGACCAGAGGCGUUAGGCGACCUGAAUUUCAGACUUUACUAACGGAA: 0.0997 ratio
CAUGCAUUUUAUUGGGGAGGGGAGGUCAGAAUAAUUCACCCAAAUCUAGUGGUCUUAUUUCAUAGGCUAAUCUGGUUUAUAUUUGCAUUAAAGAUACUGGAGGGCAAUAUUUACAGAGUU: 1.88 ratio
CUAUGUGUAAAAGUGGACAGGACUCCGAAAGGCACACAGGGAGUUGUCACAAAUUUUGAAAUAUUCCGAAUGAGGGAGAAGCAGGUACCUGUUGAUGUUGUUGAGAUGAAAGAAACCAUC: 0.186 ratio
GACAAAAGUGGACUUUAAAAAGUAAGCCUUUACGUGUUUGAUUCAGUCCACUGCUACAGGCUCACAAGCAGGUGUUUAUGUCUGAAAUUGGAGGUACCCAUUAUCUGAAAAUUCCUCUCC: 0.161 ratio

Excerpt of the above (sample 3):
CTGTAAAA: -0.181
GGGGCGTA: 0.156
CCAACTGG: -0.224
GACCGGAC: 0.0778
CACGTTAA: -0.236
GACTATAC: -0.0202
